Experimental data from different studies.
Parts stem from different laboratories: compare values within a part only.

Series 1
Target: Histone acetyltransferase KAT6A, winged helix 1, GST fusion (KAT6A, Homo sapiens, UniProt Q92794, residues 1-85)
Method: protein binding microarray
Form: double-stranded DNA, one strand shown
Matrix: in vitro
Tested at: not given
Setting: 8-mer, flanks averaged, mean of 2 arrays, mostly near background
Reference: not given
Reading: higher = stronger binding
Target sequence (chain): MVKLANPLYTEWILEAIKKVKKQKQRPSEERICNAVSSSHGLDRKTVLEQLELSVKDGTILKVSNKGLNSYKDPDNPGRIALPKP
Oligonucleotide | E-score
CATCACCA | -0.111
ACATTGAG | 0.0253
AAGGCGTG | 0.0889
AGGATACG | -0.0688
CATGTAAG | 0.115
CAATCTAC | -0.039
GTTAACCA | -0.214
GGATGGTA | -0.232
GACCGAGC | 0.0967
AGTACTCA | -0.128
CGATAGCC | 0.219
AACTGAGC | -0.0116
AGTACGGA | 0.204
ACCGCCGC | 0.435
TATAGCGA | -0.0241
AACATCTG | -0.16

Series 2
Target: RING finger protein unkempt homolog, zinc fingers 1-6, GST-SBP tag (UNK, Homo sapiens, UniProt Q9C0B0, residues 30-357)
Method: RNA Bind-n-Seq
Form: RNA
Matrix: in vitro
Tested at: not given
Setting: RNA with constant flanks, human-mouse chimeric sites, ends assumed
Reference: input RNA pool
Reading: higher = stronger binding
Target sequence (chain): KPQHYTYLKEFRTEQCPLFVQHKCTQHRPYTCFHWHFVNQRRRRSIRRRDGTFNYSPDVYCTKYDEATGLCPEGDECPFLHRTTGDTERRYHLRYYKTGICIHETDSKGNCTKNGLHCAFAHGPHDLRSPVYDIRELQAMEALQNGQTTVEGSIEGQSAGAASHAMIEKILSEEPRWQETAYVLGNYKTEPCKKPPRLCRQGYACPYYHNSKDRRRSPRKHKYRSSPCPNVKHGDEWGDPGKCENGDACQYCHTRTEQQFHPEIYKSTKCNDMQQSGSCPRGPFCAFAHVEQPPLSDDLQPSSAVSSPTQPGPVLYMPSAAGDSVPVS
Oligonucleotide | bound/input enrichment [ratio]
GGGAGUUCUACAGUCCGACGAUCAGGAGGAGGUUAAAGGGUGAGAGUGGGGUGGAAGACUGUGUCAUGGCCCUAGAAACCCUGUUCAGUGUCCUGCUUUCUCUGUGCAGACUGAUGGCCCCCUACACACCCUUUCUGACUGAGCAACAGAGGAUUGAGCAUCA | 0.0798
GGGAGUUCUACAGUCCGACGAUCGUACUGCAACAGCAGGGAAAACUGCAGGAAGCACUGAUGCAUUAUAAGGAGGCUAUUCGAAUCAGUCCUACCUUUGCUGAUGCCUACUCUAAUAUGGGAAACACUCUAAAGGAGAUGCAGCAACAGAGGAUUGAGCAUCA | 0.205
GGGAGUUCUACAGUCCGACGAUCCUCGGCACCGGCACGCUUUACAUCGCGGAGAGCCGCCUGUCUUGGUUAGAUGGUUCGGGAUUAGGAUUCUCACUGGAAUACCCCACCAUUAGUUUACAUGCGGUGUCCAGGGACCGAAACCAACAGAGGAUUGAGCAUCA | 0.676
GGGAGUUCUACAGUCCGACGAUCCGGAGCCCUCCUCUCCCCCAGGCCCGAGAUAUAACCCACCAGUGCCUUUUGUCUUCCUGUCAGCUCUGUCAAUCACGCCUGUCCUCUCACGCCCACACCAAGUGCCCCCACCCCUAAGGGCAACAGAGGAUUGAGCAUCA | 0.574
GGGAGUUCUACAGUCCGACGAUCAACGUGGAGUUGAGUUCCUUGGCCCGGCUUCCCAGCUUGAAUAAACUUCGAAAAUUGGAACUUAGUGACAAUAUAAUUUCUGGAGGCUUGGAAGUCCUGGCAGAGAAAUGUCCAAAUCUUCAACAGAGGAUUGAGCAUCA | 0.532
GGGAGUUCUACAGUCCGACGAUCGUAGCUGGGACUACAGAAAUGCUGGUAAUUUCAGUCACUUGCUGAUGACUUCUGAUGUCCCAGCAAAUGUUGGCAUUGUUGACUGCUCUGUGAAGACACUCGCAAGGCCACGUCUAAGGUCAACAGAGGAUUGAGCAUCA | 0.0929
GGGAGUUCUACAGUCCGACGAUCAUGGAAAAGGAUUCUCUGCCCCGCUUUGUGCGCUCUGAAUUUUAUAAGGAGCUAAUCAAGUAGUAAUCUGGUCAGGCUUCCAAAAGUUGCCCUGUGAGUUGAGUUACAUCCUUUGUAGCACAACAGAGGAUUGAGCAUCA | 0.258
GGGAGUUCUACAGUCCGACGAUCUGGCGCCUGCGCUCCCCACUCGUGUUUUUAAGUGUAUUUUUAUAAGAUACAUGUAUUUGUAAUAGAUCUUUUGUUACAUAAUGCUGAAAUGCUACUGCAAUAUUAUGAAAAUGUUUCAAUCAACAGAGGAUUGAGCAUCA | 0.254
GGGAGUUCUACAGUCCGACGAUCACUCUUGACUCUUUCCAUCCUCUUCCUUUCCCUCUUGAUCUUCAAGGCCAUGAAUCCCAAAAUAACAGUCUUAGUGGCUAGCACCCAAACAGAGGUGGAAUAAAUCCACCCCAGUGUCUCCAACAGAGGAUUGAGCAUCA | 0.622
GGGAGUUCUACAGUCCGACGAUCUCCCAAAUUAUAAGGCAAGAAGGAGCCAAUUGUUUGUCACUCCACACACAGGGAAGGCGAUAACAUUGUACAUUGGUUUACAUUUUUUCCCCCUGUGGAUUUUUCUAGAGGUCAUAGUGCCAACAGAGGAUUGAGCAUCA | 0.616
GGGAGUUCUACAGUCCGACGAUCUGUGCAUAUGAUGCUUGGAGAUGGUUUUGCAAAAGCAGAAAUCGCUGCAAGGUAAUCACAAUAGAUACAAGCGGUAUUUUAAACCUUUGAAAUAAAUGGAUGUAACUGUACCUUGGUACACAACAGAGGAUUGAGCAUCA | 0.28

Series 3
Target: RNA binding protein fox-1 homolog 2, RRM domain, GST-SBP tag (RBFOX2, Homo sapiens, UniProt O43251-10, residues 100-194)
Method: RNA Bind-n-Seq
Form: RNA
Matrix: in vitro
Tested at: 365 nM
Setting: natural RNA segment, single round, ends assumed
Reference: no-protein control
Reading: higher = stronger binding
Target sequence (chain): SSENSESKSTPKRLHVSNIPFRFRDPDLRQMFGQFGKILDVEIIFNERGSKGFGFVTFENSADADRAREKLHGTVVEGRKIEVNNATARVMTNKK
Oligonucleotide | RBNS enrichment (R)
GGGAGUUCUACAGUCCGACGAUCGAGAGAGAUCUACCCAUUAGAAUUGAUUUAGGUGCCCAUUGCAUCUUUUGUACUAUGGAGUUGUUUACAGUAAGCAUGACUGAACAAGCACUAACAUCCUCCUACACCGGUGGAAUUCUCGGGUGCCAA | 48.3
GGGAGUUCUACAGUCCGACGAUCAUCACUGGAGCACCAGGCACGAACCCACCUGCUGAGAGACCCAAGGAGGAAAAACAGACAAAAACAGCCUCACAGAAGAAUAUGACAGCUGUCCCUGUCACCAAGCUCACUGGAAUUCUCGGGUGCCAA | 0.434
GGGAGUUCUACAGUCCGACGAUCAAGUCAUUUUUUAAAAAUUUCUAAUGAAAGAAGUUUGUGUUCUGUCCAAAAAGUCACUGAACUCAUACUUCAGUACAUAUACAUGUAUAAGGCACACUGUAGUGCUUAAUUGGAAUUCUCGGGUGCCAA | 0.414
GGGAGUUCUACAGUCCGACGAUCCUCCCUGCUAUUGUGGACCUAAGCAAUUACAGUUUAAAUUCUGUAUACAGCACUAGUCAAGACAAUGUGAUAUCCUUCCACCUUCCCCCUUUAUUUCAAGAAAUGCAUAGUGGAAUUCUCGGGUGCCAA | 0.902
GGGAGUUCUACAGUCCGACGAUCCAGGAAAUAUUUUAAUUGGGCUGAUUUUAAUUAGGCUGUAUCAUUGAUGAUUACUGGAAUCGAUUUUAUGUCUUUUGUAUUUUAAUCACUUGAGUUAAUCAACCACUGGCUGGAAUUCUCGGGUGCCAA | 0.602
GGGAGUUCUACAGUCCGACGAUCCAUCCUUUACGUGUUUAAAAAAAAGCAUAAAAACAUUUUAAAAACAUAGAAAAAUUCAGCAAACCAUUUUUAAAGUAGAAGAGGGUUUUAGGUAGAAAAACAUAUUCUUGUGGAAUUCUCGGGUGCCAA | 0.726
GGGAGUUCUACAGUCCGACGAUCAAUAUCUUAAGAGUAUUGAUAUCUUUCAUUUUUUCAUCCAGCAGUCUAGUGCCCAGCUGCUGACAAUAAAAGCUCCAACUCUUUUAGAGAUCAGUGGAAUUUAGAAGCAUUGGAAUUCUCGGGUGCCAA | 0.517
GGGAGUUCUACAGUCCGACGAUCCGGGAUCAUUUCCAUAAGUCUGCUUUUCAGGGAUUCUCUGCUGGUGCUGGUGCAAGGACUUCUGUUCCAAAGGCUGGGAAAAACUAAGCUGUCCCAGCCCCUCCCAUUUCUGGAAUUCUCGGGUGCCAA | 0.404
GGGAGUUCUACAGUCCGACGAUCACAGAAUUCUUUCACACUUUUGCAGAAAUGUGUAUAUUUAAUGCUGUGCGACUGCUAAACUGCAGGUUUUUGUUGAAGGAACUAAAAGCAACUAGUUCACUCAUAGUCUAUGGAAUUCUCGGGUGCCAA | 0.31
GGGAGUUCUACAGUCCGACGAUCGCUCUUUGCAGAUGCCUAUACUUCCAACACUACCAUGUCCACAAACCACCCUGGGGGAGGGCCCUUCCAAAGGGAGGCUUGCUAGUUUCAGCGUCUAGCAGUUGGGUCCUUGGAAUUCUCGGGUGCCAA | 0.428
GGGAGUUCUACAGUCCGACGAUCCAUGCCCAGUGCAUGUUGGGUCCAUGCACAACUCCUGGACCCGAGCUUUCACCAAGCUCUGGCCUCCAGGGAGCUGUGUCUUUCUCUGUCCCAUUAAGAUUUGGGCACAGUGGAAUUCUCGGGUGCCAA | 0.483
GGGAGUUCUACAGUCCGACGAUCCAACCCAGCUGUAGGCGCUUACACUGAAAUCUAAGUCUGUAUAGUGAACGCCAGCGGCGGCCGACUUCUAUCCCAAGCACUGCGCAAAAGCAGAGGAACGGAAAGGGAAAUGGAAUUCUCGGGUGCCAA | 0.729

Series 4
Target: Probable WRKY transcription factor 50, DNA-binding domain (WRKY50, Arabidopsis thaliana, UniProt Q8VWQ5, residues 99-173)
Method: DNA-protein interaction ELISA
Form: double-stranded DNA, one strand shown
Matrix: in vitro, bacterial lysate
Tested at: not given
Setting: whole dsDNA probe, crude lysate protein
Reference: highest signal in screen
Reading: higher = stronger binding
Residues (chain): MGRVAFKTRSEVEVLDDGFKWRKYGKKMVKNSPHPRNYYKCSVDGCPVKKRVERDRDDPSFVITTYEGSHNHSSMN
Oligonucleotide | relative absorbance
AAAAAATTGCATTCCACCCTTAGGTTAAAA | 44.1 % of maximum
AAAAAAGTTCGGGGCTTGGTTTGGAAAAAA | 37.1 % of maximum
AAAAAATTCTTAGTTAGATTCACCTCAAAA | 22.9 % of maximum
AAAAAATTTTGTTTTTGCTTTTCCTTAAAA | 13.7 % of maximum
AAAAAACGTTGAACCTGGGCCTCAACAAAA | 34.9 % of maximum
AAAAAATAATTACAAGTCGGCTCCACAAAA | 15.4 % of maximum
AAAAAAGCGCGAATTCTAGAACTATAAAAA | 18.2 % of maximum
AAAAAATTGCACCTGATACTAGGGTTAAAA | 22.1 % of maximum
AAAAAATATGCTACTCCACCTTGATGAAAA | 19 % of maximum
AAAAAAACTATAGTCTTTGTCATGATAAAA | 18.1 % of maximum
AAAAAATCTAGGGGTACCTATTTGGCAAAA | 12.8 % of maximum
AAAAAAACCCGTGCCTGCCTATTGCAAAAA | 16 % of maximum
AAAAAATCCCCCCGTTTCACTCTTGCAAAA | 37.5 % of maximum
AAAAAAACCTCTTTATTCTCGATTGTAAAA | 29.8 % of maximum
AAAAAAATGCGCCCTTTCTGACATAAAAAA | 13.2 % of maximum
AAAAAATTGGTTCTCATTTCTACTTCAAAA | 26.2 % of maximum
AAAAAATTTATACTTGATCCTGGCTTAAAA | 15.3 % of maximum
AAAAAAACATCCACACCCGCGGCGCGAAAA | 36 % of maximum
AAAAAATATCCTATTCTAATTTATATAAAA | 32.1 % of maximum

Some of these lines once more (series 4):
Oligonucleotide | relative absorbance
AAAAAAACCCGTGCCTGCCTATTGCAAAAA | 16 % of maximum
AAAAAATCCCCCCGTTTCACTCTTGCAAAA | 37.5 % of maximum
AAAAAAACCTCTTTATTCTCGATTGTAAAA | 29.8 % of maximum
AAAAAAATGCGCCCTTTCTGACATAAAAAA | 13.2 % of maximum
